Experimental data of several laboratories.
Protocols differ between the studies behind these lines. ± marks the error that the study gave.

| SMILES | cell line | assay | setting | how to read | measurement | value |
| --- | --- | --- | --- | --- | --- | --- |
| CC(C)(C)C(=O)Nc1ccc2[nH]c(CN3CCC(N(CCCN4CCOCC4)CC4OC(n5cnc6c(N)ncnc65)C(O)C4O)CC3)nc2c1 (stereo not shown) | H460 wild type cells | colony formation | 5 µM | – | inhibition | 61.6% |
| O=Cc1c(O)ccc2ccccc12 | HUVEC | RNA sequencing, refers to: DHFR | 75 µM, 24 h | reference: DMSO | log2 fold change | -3.1 |
| COc1cc(/C=C/c2cc(C)n[nH]2)ccc1O | CHO | – | 2.5 µM, 2 h pretreatment, read 18 h post-irradiation, with: 4 Gy radiation | reference: irradiated control | reduction in micronuclei | ~25% |
| COC1CN([C@H]2CC[C@H]([C@@]3(C)Oc4c(Cl)cc(C(=O)NCc5c(SC)cc(C)[nH]c5=O)c(C)c4O3)CC2)C1 | T24 | cell growth or viability, ATP luminescence | 12 days | – | GI50 | > 1 µM |
| COc1cc(CNC(=O)C[C@H](C)CCC=C(C)C)ccc1OCc1cn(-c2cccc([N+](=O)[O-])c2)nn1 | SK-MEL-28 melanoma cells | SRB | 10 µM, 48 h | – | growth percent | 98.5% |
| CC(Cc1ccc(Cl)cc1)=C(c1ccc(Cl)cc1)c1ccc(OCCN(C)C)cc1 | Malme-3M | cell growth or viability, SRB | – | – | GI50 | 3.68 µM |
| CC/C=C\C/C=C\C/C=C\C/C=C\C/C=C\C/C=C\CCC(=O)Nc1ccn(C2OC(CO)C(O)C2(F)F)c(=O)n1 (stereo not shown) | OVCAR-4 | cell growth or viability, SRB | – | – | GI50 | 14.5 µM |
| N=C(N)NCCC[C@H](NC(=O)[C@H](Cc1c[nH]c2ccccc12)NC(=O)[C@H](CCC(N)=O)NC(=O)[C@H](Cc1c[nH]c2ccccc12)NC(=O)[C@H](CCCNC(=N)N)NC(=O)[C@H](Cc1c[nH]c2ccccc12)NC(=O)[C@H](CCC(N)=O)NC(=O)[C@H](Cc1c[nH]c2ccccc12)NC(=O)[C@@H](N)CCCNC(=N)N)C(N)=O | young human fibroblasts primary | MTT | concentration not given, 24 h, 37 °C, 5% FBS | reference: untreated cells | viability | 100 ± 2% |
| CC(C)C[C@H](NC(=O)[C@H](CC(C)C)NC(=O)[C@@H](Cc1c[nH]c2ccccc12)NC(=O)[C@H](Cc1ccccc1)NC(=O)[C@@H](Cc1c[nH]c2ccccc12)NC(=O)[C@H](CCC(N)=O)NC(=O)[C@H](CCC(N)=O)NC(=O)[C@@H]1CCCN1C(=O)[C@H](CCCCN)NC(=O)[C@@H]1CCCN1C(=O)[C@H](N)CCCNC(=N)N)C(N)=O | HEK293 expressing NK1R | nuclear ERK, antagonist, FRET biosensor | concentration not given, 30 min, with: substance P | – | ERK activity | inhibited |
| CCn1nc(C(C)(C)C)cc1Nc1nc(-c2ccc(-n3cnc(C)c3)c(F)c2)cs1 | SH-SY5Y-APP | sandwich ELISA | 100 pM to 10 µM, 24 h | – | total amyloid beta level | no effect |
| COc1ccc2nc(C)ccc2c1Nc1sn(C)c(=O)c1C#N | mouse DRG neurons | – | up to 10 µM, 22 h | – | NAD+ level | no effect |
| CC(C)[C@@H](NC(=O)[C@H](N)CCCNC(=N)N)C(=O)N[C@H](CCCCN)C(=O)N[C@@H](C(=O)N[C@H](CCCCN)C(=O)N[C@@H](C(=O)N[C@@H](C(=O)N[C@@H](C(=O)N[C@@H](C(=O)N[C@H](CCCNC(=N)N)C(=O)N[C@H](CCCNC(=N)N)C(=O)N[C@H](CCCNC(=N)N)C(=O)N[C@H](CCCNC(=N)N)C(=O)N[C@H](CCCNC(=N)N)C(=O)N[C@H](CCCNC(=N)N)C(=O)N[C@H](CCCNC(=N)N)C(=O)N[C@H](CCCNC(=N)N)C(=O)N[C@H](CCCNC(=N)N)C(N)=O)C(C)C)C(C)C)C(C)C)C(C)C)C(C)C | human PBMC NK cells CD3-CD56+ | flow cytometry | concentration not given, 72 h, unstimulated | – | CD25 expression | increased |
| CO[C@H]1O[C@H](COC(c2ccccc2)(c2ccccc2)c2ccccc2)[C@@H](OS(=O)(=O)c2ccccc2)[C@H](OS(=O)(=O)c2ccccc2)[C@H]1OS(=O)(=O)c1ccccc1 | Ehrlich | cell growth or viability, MTT | 62.5 µg/mL, 24 h | – | inhibition | 3.78% |
| COc1ccc([C@@H]2CC(=O)c3c(O)cc(O[C@@H]4O[C@H](CO[C@@H]5O[C@@H](C)[C@H](O)[C@@H](O)[C@H]5O)[C@@H](O)[C@H](O)[C@H]4O)cc3O2)cc1O | MRC5 | trypan blue exclusion | 50 µg/mL, 24 h | – | cell count | 12900 ± 498 |
| Cc1nn(-c2ccc(S(=O)(=O)N[C@H](CO)CC(C)C)cc2)c2nn3nnnc3nc12 | HT-29 | PI/Hoechst staining | 2 µM, 24 h | – | apoptotic cells | 37 ± 1.4% |
| CCCC[n+]1cccc(C2NC(C(=O)OCC)C34c5c6c7c8c9c%10c(c%11c%12c3c3c5c5c%13c6c6c7c7c9c9c%14c%10c%10c%11c%11c%12c%12c3c3c5c5c%13c%13c6c6c7c9c7c9c%14c%10c%10c%11c%11c%12c3c3c5c5c%13c6c7c6c9c%10c%11c3c56)C824)c1 (stereo not shown) | BC-3 | cell growth or viability | 24 h | – | CC50 | 9.6 µM |
| C[C@H](NC(=O)[C@H](CCC(N)=O)NC(=O)[C@H](Cc1c[nH]c2ccccc12)NC(=O)[C@@H](N)CCCNC(=N)N)C(=O)N[C@@H](CCCNC(=N)N)C(=O)N[C@@H](Cc1c[nH]c2ccccc12)C(=O)N[C@@H](CCC(N)=O)C(=O)N[C@@H](Cc1c[nH]c2ccccc12)C(=O)N[C@@H](CCCNC(=N)N)C(N)=O | young human fibroblasts primary | MTT | concentration not given, 48 h, 37 °C, 5% FBS | reference: untreated cells | viability | 66 ± 2% |
| FC(F)(F)c1ccnc(-c2cc(C(F)(F)F)ccn2)c1.FC(F)(F)c1ccnc(-c2cc(C(F)(F)F)ccn2)c1.[Cl-].[Cl-].[Ru+2].c1csc(-c2ccc(-c3ccc(-c4nc5c6cccnc6c6ncccc6c5[nH]4)s3)s2)c1 | SK-MEL-28 | cell viability | normoxia, with: red light 633 nm | reference: dark EC50 over light EC50 | mean phototherapeutic index | 52 |
| COc1cc(CNC(=O)C[C@H](C)CCC=C(C)C)ccc1OCc1cn(-c2ccccc2Cl)nn1 | NCI-H522 | SRB | 10 µM, 48 h | – | growth percent | 51.4% |
| CC(=O)OC[C@H]1O[C@@H](Sc2sc(C(=O)c3ccc(Br)cc3)c(N)c2-c2nc3ccccc3s2)[C@H](OC(C)=O)[C@@H](OC(C)=O)[C@H]1OC(C)=O | NCI-H522 | SRB | 10 µM, 48 h | reference: untreated | growth | 94.1% |

| SMILES | cell line | assay | setting | how to read | measurement | value |
| --- | --- | --- | --- | --- | --- | --- |
| CC(=O)N1CCC[C@H]1C(=O)N[C@@H](CC/C=C/C(=O)N(C)C)C(=O)N[C@@H](CCNC(=O)CCCCCN1C(=CC=CC=CC2=[N+](C)c3ccc(S(=O)(=O)[O-])cc3C2(C)C)C(C)(C)c2cc(S(=O)(=O)O)ccc21)C(=O)N1CCC[C@H]1C(=O)N[C@@H](Cc1ccccc1)C(N)=O | NRK cells | refers to: RFP-LAMP-1 | 90 min, with: α2-macroglobulin | – | Pearson colocalization coefficient | 0.426 |
| N#Cc1ccc(C=O)o1 | human sickle cell (SS) red blood cells | – | 2 mM | reference: 5-HMF | antisickling activity fold improvement | ~2.3 fold |
| CCCC(CCC)C(=O)[O][Pt]([NH2])([NH2])([Cl])([Cl])[O]C(=O)c1ccccc1OC(C)=O | six human cancer lines | cytotoxicity, MTT | – | reference: cisplatin | IC50 fold lower | ~10 fold |
| O=C(CSc1nc2ccccc2s1)Nc1nonc1[N+](=O)[O-] | Ramos | qRT-PCR, refers to: ACTB and HPRT1 | 15 µM, 8 h | – | mRNA level | no effect |
| C=C[C@H](OC(C)=O)c1ccc(OC(C)=O)cc1 | MDA-MB-231 | Western blot | IC50, 24 h | reference: untreated | Bcl-xL protein decrease | 30 to 50% |
| Cc1cc(O)cc(O)c1C(=O)c1c2c3c(c(O)cc(C)c3oc1=O)C(=O)c1c(O)cc(O)cc1-2 | Bel-7402 | western blot | concentration not given, 12 h | – | γ-H2AX level | increased |
| O=C(Cn1c(=O)c(Cc2ccccc2)nc2ccccc21)OCCNCCO | HCT-116 | qRT-PCR, refers to: p53 | concentration not given, 72 h | reference: untreated | mRNA level | 5.312 ± 0.012 fold |
| CCOC(=O)C(Cc1cccc(O)c1)OC(=O)C=Cc1ccc(O)c(O)c1C=Cc1ccc(O)c(O)c1 (stereo not shown) | human vascular smooth muscle cells | – | 10 µM | – | transgelin-actin co-localization | 83% |
| COc1cc(CNC(=O)C[C@H](C)CCC=C(C)C)ccc1OCc1cn(-c2ccc(Cl)cc2Cl)nn1 | SK-MEL-28 melanoma cells | SRB | 10 µM, 48 h | – | growth percent | 96.3% |
| CC(C)c1cnc(-c2cc(Cl)ccc2F)cc1Nc1ccncc1C(=O)NC(CO)CO | VCaP | enzalutamide-induced SMAD2 phosphorylation, inhibitor, Western blot | concentration not given, with: enzalutamide and high-concentration dihydrotestosterone | – | pSMAD2 level | inhibited |
| COc1ncccc1CN(C(=O)OCc1ccc([N+](=O)[O-])s1)[C@H]1C[C@@H]1c1ccccc1 (racemic) | THP-1 cells | colony forming unit | – | reference: EC50 wild type over NTR-expressing | selectivity ratio | 1 ± 1 |
| COC(=O)CCNC(=O)CNC(=O)CCn1nc(Cc2ccccc2)c2ccccc2c1=O | HCT-116 | – | 0.32 µM, 48 h | – | total apoptotic cells | 27.6% |
| COc1ccc(-c2cc(COC3c4cc5c(cc4C(c4cc(OC)c(OC)c(OC)c4)C4C(=O)OCC34)OCO5)on2)cc1 (stereo not shown) | MIA PaCa-2 | – | 20 µg/mL, 24 h | – | caspase-3/7 activation | 92.3% |
| O=C1Nc2ccc(F)cc2C1=Cc1c(Cl)[nH]c2c1ccc1ccccc12 | prostate cancer subpanel of NCI-60 | – | 48 h | – | TGI | 9.77 µM |
| C=CC(OC(C)=O)c1cc(OC)c(OC(C)=O)c(OC)c1 (stereo not shown) | MDA-MB-231 | cell growth or viability, MTT | – | – | IC20 | 12 µM |
| COc1ccc([C@@H]2CC(=O)c3c(O)cc(O[C@@H]4O[C@H](CO[C@@H]5O[C@@H](C)[C@H](O)[C@@H](O)[C@H]5O)[C@@H](O[C@H]5O[C@H](CO)[C@@H](O)[C@H](O)[C@H]5O)[C@H](O)[C@H]4O)cc3O2)cc1O | A549 | cell migration, scratch | 100 µg/mL, 48 h | – | gap closure | 5.25 ± 0.2% |
| COc1cc(CNC(=O)C[C@H](C)CCC=C(C)C)ccc1OCc1cn(-c2cccc(Cl)c2)nn1 | NCI-H522 | SRB | 10 µM, 48 h | – | growth percent | 67.3% |
| COc1cc(OC)cc([C@@H]2C[C@H](C)OC(=O)c3c(C(=O)C(F)(F)F)c4ccccn4c32)c1 (relative stereo) | MCF-10A | resazurin | – | reference: CC50 MCF-10A over IC50 MDA-MB-231 | selectivity ratio | ≥ 24 |
| COc1cc(CNC(=O)C[C@H](C)CCC=C(C)C)ccc1OCc1cn(-c2ccc(Br)cc2)nn1 | NCI-H522 | SRB | 10 µM, 48 h | – | growth percent | 41.6% |
| CSc1nc(Nc2ccc(/C(C)=N/NC(=O)c3ccc([N+](=O)[O-])cc3[N+](=O)[O-])cc2)c(C#N)c(-c2ccccc2)n1 | HCT-116 | flow cytometry | 1.14 µM, 24 h | – | S phase cells | 36.2% |

For quick reference, copied from above:
| SMILES | cell line | assay | setting | how to read | measurement | value |
| --- | --- | --- | --- | --- | --- | --- |
| C=C[C@H](OC(C)=O)c1ccc(OC(C)=O)cc1 | MDA-MB-231 | Western blot | IC50, 24 h | reference: untreated | Bcl-xL protein decrease | 30 to 50% |
| CC(Cc1ccc(Cl)cc1)=C(c1ccc(Cl)cc1)c1ccc(OCCN(C)C)cc1 | Malme-3M | cell growth or viability, SRB | – | – | GI50 | 3.68 µM |
| CSc1nc(Nc2ccc(/C(C)=N/NC(=O)c3ccc([N+](=O)[O-])cc3[N+](=O)[O-])cc2)c(C#N)c(-c2ccccc2)n1 | HCT-116 | flow cytometry | 1.14 µM, 24 h | – | S phase cells | 36.2% |
| CCCC[n+]1cccc(C2NC(C(=O)OCC)C34c5c6c7c8c9c%10c(c%11c%12c3c3c5c5c%13c6c6c7c7c9c9c%14c%10c%10c%11c%11c%12c%12c3c3c5c5c%13c%13c6c6c7c9c7c9c%14c%10c%10c%11c%11c%12c3c3c5c5c%13c6c7c6c9c%10c%11c3c56)C824)c1 (stereo not shown) | BC-3 | cell growth or viability | 24 h | – | CC50 | 9.6 µM |
| CC(C)C[C@H](NC(=O)[C@H](CC(C)C)NC(=O)[C@@H](Cc1c[nH]c2ccccc12)NC(=O)[C@H](Cc1ccccc1)NC(=O)[C@@H](Cc1c[nH]c2ccccc12)NC(=O)[C@H](CCC(N)=O)NC(=O)[C@H](CCC(N)=O)NC(=O)[C@@H]1CCCN1C(=O)[C@H](CCCCN)NC(=O)[C@@H]1CCCN1C(=O)[C@H](N)CCCNC(=N)N)C(N)=O | HEK293 expressing NK1R | nuclear ERK, antagonist, FRET biosensor | concentration not given, 30 min, with: substance P | – | ERK activity | inhibited |
| COc1cc(CNC(=O)C[C@H](C)CCC=C(C)C)ccc1OCc1cn(-c2ccc(Cl)cc2Cl)nn1 | SK-MEL-28 melanoma cells | SRB | 10 µM, 48 h | – | growth percent | 96.3% |
